# Literature values as cited in several papers.
# Protocols differ between the studies behind these lines. ± marks the error that the study gave.
# Sequence of UniProt Q8N568 (whole entry, looked up): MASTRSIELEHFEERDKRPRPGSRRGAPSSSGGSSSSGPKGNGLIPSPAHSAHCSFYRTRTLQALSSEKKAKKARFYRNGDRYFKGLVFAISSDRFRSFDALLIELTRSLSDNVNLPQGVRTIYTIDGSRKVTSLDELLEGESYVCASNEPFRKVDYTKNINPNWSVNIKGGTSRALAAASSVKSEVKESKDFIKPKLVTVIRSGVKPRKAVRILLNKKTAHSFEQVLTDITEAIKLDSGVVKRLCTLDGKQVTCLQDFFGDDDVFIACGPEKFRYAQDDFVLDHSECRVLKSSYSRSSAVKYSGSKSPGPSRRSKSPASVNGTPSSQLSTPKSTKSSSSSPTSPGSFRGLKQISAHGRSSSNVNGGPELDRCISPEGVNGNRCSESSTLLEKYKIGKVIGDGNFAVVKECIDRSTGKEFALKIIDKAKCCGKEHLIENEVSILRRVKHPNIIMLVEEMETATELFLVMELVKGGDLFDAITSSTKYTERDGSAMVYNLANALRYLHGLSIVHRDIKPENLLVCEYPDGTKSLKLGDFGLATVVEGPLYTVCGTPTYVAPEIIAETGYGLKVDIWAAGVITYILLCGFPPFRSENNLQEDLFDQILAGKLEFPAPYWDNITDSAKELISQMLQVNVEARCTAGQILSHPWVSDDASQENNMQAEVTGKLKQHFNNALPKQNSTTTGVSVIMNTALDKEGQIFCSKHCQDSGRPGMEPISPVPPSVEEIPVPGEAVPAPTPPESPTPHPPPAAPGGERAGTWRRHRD
Structure (SMILES),tested on,test,system,conditions,scale,quantity,result
C=CC[C@@H]1/C=C(\C)C[C@H](C)C[C@H](OC)[C@H]2O[C@@](O)(C(=O)C(=O)N3CCCC[C@H]3C(=O)O[C@H](/C(C)=C/[C@@H]3CC[C@@H](O)[C@H](OC)C3)[C@H](C)[C@@H](O)CC1=O)[C@H](C)C[C@@H]2OC,,,"human, plasma",concentration not given,,Cmax,83 nM
CCCCCCOC(=O)NC(=N)c1ccc(NCc2nc3cc(C(=O)N(CCC(=O)OCC)c4ccccn4)ccc3n2C)cc1,,,human,"oral, dose not given",,Cmax,95 ng/mL
CC(C)NCC(O)c1ccc(O)c(O)c1 (stereo not drawn),,,"human, plasma",concentration not given,,Cmax,2.7 nM
C[C@H]1CO[C@@H]2Cn3cc(C(=O)NCc4ccc(F)cc4F)c(=O)c(O)c3C(=O)N12,,,human,"oral tablet, two 5 mg tablets, geometric mean fed",,Cmax,1180 ng/mL
CO[C@@H](C)Cn1c(=O)n(C)c2cnc3ccc(-c4cncc(C(C)(C)O)c4)cc3c21,,,human,"325 mg once daily, steady state, day 15",,Cmax,1450 ng/mL
CCN1CCN(Cc2ccc(Nc3ncc(F)c(-c4cc(F)c5nc(C)n(C(C)C)c5c4)n3)nc2)CC1,,,human,"oral tablet, 100 mg twice daily, multiple dose",,Cmax,205 ng/mL
C[C@]12C=CC(=O)C=C1CC[C@H]1[C@@H]3C[C@@H](O)[C@](O)(C(=O)CO)[C@@]3(C)C[C@H](O)[C@@]12F,,,"human, plasma",concentration not given,,Cmax,27 nM
FC(F)(F)c1ccc(CNc2ccc(Cc3c[nH]c4ncc(Cl)cc34)cn2)cn1,,,human,"1000 mg/day, day 1, split 500 mg BID dosing",,Cmax,1900 ng/mL
COc1ccc2[nH]c([S+]([O-])Cc3ncc(C)c(OC)c3C)nc2c1 (stereo not drawn),,,human post-RYGB patients,"oral tablet, 20 mg twice daily, day 7",,Cmax,959 ng/mL
CC(C)OC(=O)[C@H](C)N[P@](=O)(OC[C@H]1O[C@@H](n2ccc(=O)[nH]c2=O)[C@](C)(F)[C@@H]1O)Oc1ccccc1,,,"human, plasma total",400 mg,,Cmax,1140 nM
C[C@@H](Oc1ccc(S(C)(=O)=O)cc1C(=O)N1C[C@@H]2C[C@]2(c2cc(C(F)(F)F)on2)C1)C(F)(F)F,,,human,"oral, 5 mg, solution, fasted, single dose",,Cmax,89 nM
Cc1cc(C)c(CNC(=O)c2cc(Cl)c3c(c2C)O[C@@](C)([C@H]2CC[C@H](N(C)C)CC2)O3)c(=O)[nH]1,,,"healthy human, fasted","oral, 200 mg single dose, mean",,Cmax,~1500 ng/mL
O=C(O)[C@H]1O[C@@H](Oc2ccc([C@@H]3[C@@H](CC[C@H](O)c4ccc(F)cc4)C(=O)N3c3ccc(F)cc3)cc2)[C@H](O)[C@@H](O)[C@@H]1O,,,human,dose not given,,Cmax,282 ng/mL
CCc1nn(CCO)c(CC)c1Oc1cc(C#N)cc(C#N)c1,,,"human, plasma total",600 mg,,Cmax,4440 nM
CN1CCN(c2ccc(C(=O)Nc3n[nH]c4ccc(Cc5cc(F)cc(F)c5)cc34)c(NC3CCOCC3)c2)CC1,,,"human, plasma",dose not given,,Cmax,2700 nM
O=C(c1cc(Cc2n[nH]c(=O)c3ccccc23)ccc1F)N1CCN(C(=O)C2CC2)CC1,,,human,"300 mg single dose, tablet",,Cmax,7410 ng/mL
OC(Cn1cncn1)(Cn1cncn1)c1ccc(F)cc1F,,,human,"oral, 100 mg single dose",,Cmax,1870 ng/mL
COc1ccccc1Oc1c(NS(=O)(=O)c2ccc(C(C)(C)C)cc2)nc(-c2ncccn2)nc1OCCO,,,human,"62.5 mg, 56 days",,Cmax,2050 nM
Cc1cn([C@H]2C=C[C@@H](CO)O2)c(=O)[nH]c1=O,,,"human, plasma","concentration not given, total plasma concentration",,Cmax,2400 nM
CC[C@H](Nc1ncnc2[nH]cnc12)c1nc2cccc(F)c2c(=O)n1-c1ccccc1,,,human,dose not given,,Cmax,5200 nM
C=CC(=O)Nc1cc(Nc2nccc(-c3cn(C)c4ccccc34)n2)c(OCC(F)(F)F)nc1N(C)CCN(C)C,,,healthy human,"80 mg, single dose",,Cmax,29.6 ng/mL
C[C@@H]1C[C@H]2[C@@H]3CCC4=CC(=O)C=C[C@]4(C)[C@@]3(F)[C@@H](O)C[C@]2(C)[C@@]1(O)C(=O)CO,,,"human, plasma","8 mg, monotherapy",,Cmax,70.4 ng/mL
CN(CCOc1ccc(CC2SC(=O)NC2=O)cc1)c1ccccn1 (stereo not drawn),,,"human, plasma","oral, 8 mg single dose",,Cmax,1000 to 2000 nM
Cn1cnc2c(F)c(Nc3ccc(Br)cc3F)c(C(=O)NOCCO)cc21,,,"human, plasma total",30 mg,,Cmax,662 nM
O=C(c1cc(Cc2n[nH]c(=O)c3ccccc23)ccc1F)N1CCN(C(=O)C2CC2)CC1,,,human,"oral, 100 mg tablet, single dose, together with: itraconazole 200 mg qd for 7 days",,Cmax,4200 ng/mL
CC(=O)O[C@@]12CO[C@@H]1C[C@H](O)[C@@]1(C)C(=O)[C@H](O)C3=C(C)[C@@H](OC(=O)[C@H](O)[C@@H](NC(=O)OC(C)(C)C)c4ccccc4)C[C@@](O)([C@@H](OC(=O)c4ccccc4)[C@H]21)C3(C)C,,,"human, plasma",concentration not given,,Cmax,3700 nM
COCCCC/C(=N\OCCN)c1ccc(C(F)(F)F)cc1,,,human,"oral, 25 mg single dose",,Cmax,7.09 ng/mL
COC(=O)N[C@H](C(=O)N1CCC[C@H]1c1nc(-c2ccc(-c3ccc(-c4c[nH]c([C@@H]5CCCN5C(=O)[C@@H](NC(=O)OC)C(C)C)n4)cc3)cc2)c[nH]1)C(C)C,,,human,dose not given,,Cmax,1350 nM
CNC(=O)c1c(C)oc2cc(Oc3ncnc4cc(OC)c(OC)cc34)ccc12,,,"healthy human subjects, plasma","5 mg, single dose",,Cmax,133 ng/mL
COc1cccc2c1C(=O)c1c(O)c3c(c(O)c1C2=O)C[C@@](O)(C(=O)CO)C[C@@H]3O[C@H]1C[C@H](N)[C@H](O)[C@H](C)O1,,,"human, plasma","intravenous infusion, 30 mg/m^2, 4 h infusion",,Cmax,320 ± 63 nM
CCCCCOC(=O)Nc1nc(=O)n([C@@H]2O[C@H](C)[C@@H](O)[C@H]2O)cc1F,,,"human, plasma",concentration not given,,Cmax,9700 nM
COCCc1ccc(OCC(O)CNC(C)C)cc1 (stereo not drawn),,,human,"400 mg single dose, fasted",,Cmax,94 ng/mL
Cc1nsc(-c2nnc3n2CCN(C(=O)c2ccc(F)cc2)[C@@H]3C)n1,,,human,"oral, 60 mg, day 1, fed",,Cmax,336 ng/mL
O=C(c1cccnc1-c1ccncc1)N1CCC(O)(Cc2ccccc2)CC1,,,human,"dose not given, fed vs fasted",,Cmax,decreased
COc1cc(N2CCC(N3CCN(C)CC3)CC2)ccc1Nc1ncc(Cl)c(Nc2ccccc2P(C)(C)=O)n1,,,"human, plasma",dose not given,,Cmax,2900 nM
CNCc1cc(-c2ccccc2F)n(S(=O)(=O)c2cccnc2)c1,,,human,"20 mg, single dose",,Cmax,23 ng/mL
Nc1cc(C(F)(F)F)c(-c2nc(N3CCOCC3)nc(N3CCOCC3)n2)cn1,"DCLK2 (Homo sapiens, UniProt Q8N568)",enzyme activity,,10 µM,reference: untreated,remaining activity,100%
C#C[C@]1(O)CC[C@H]2[C@@H]3CCC4=CC(=NO)CC[C@@H]4[C@H]3CC[C@@]21CC (mixture of isomers),,,human fasted,"0.25 mg, after 7 days, together with: norgestimate",,Cmax,2.66 ng/mL
CC(=O)[C@]1(O)Cc2c(O)c3c(c(O)c2[C@@H](O[C@H]2C[C@H](N)[C@H](O)[C@H](C)O2)C1)C(=O)c1ccccc1C3=O,,,"human, plasma",concentration not given,,Cmax,88 nM
CC(C)N(CCCCOCC(=O)NS(C)(=O)=O)c1cnc(-c2ccccc2)c(-c2ccccc2)n1,,,"human, plasma total",1.6 mg,,Cmax,512 nM
CC1(C)C[C@@H]1C(=O)N/C(=C\CCCCSC[C@H](N)C(=O)O)C(=O)O,,,human,"intravenous, dose not given",,Cmax,182000 nM
COc1cc2c(Oc3ccc4[nH]c(C)cc4c3F)ccnc2cc1OCC1(N)CC1,,,human,"10 mg/day, two cycles",,Cmax,65.2 ± 28.9 ng/mL
C=CC(=O)N1CCC([C@@H]2CCNc3c(C(N)=O)c(-c4ccc(Oc5ccccc5)cc4)nn32)CC1,,,human patients,"oral, 40 mg once daily, day 1",,Cmax,80 ± 43 ng/mL
CCN(CC)CCN(CCNCCc1ccc(O)c2[nH]c(=O)sc12)C(=O)CCOCCc1cccc2ccccc12,,,"human, plasma","inhaled, dose not given",,Cmax,3.7 nM
Cc1ccc([C@@H]2O[C@H](CO)[C@@H](O)[C@H](O)[C@H]2O)cc1Cc1ccc(-c2ccc(F)cc2)s1,,,"human, preserved kidney function","300 mg, steady state, mean",,Cmax,3380 ng/mL

# Some of these lines once more:
Structure (SMILES),tested on,test,system,conditions,scale,quantity,result
CNCc1cc(-c2ccccc2F)n(S(=O)(=O)c2cccnc2)c1,,,human,"20 mg, single dose",,Cmax,23 ng/mL
Nc1cc(C(F)(F)F)c(-c2nc(N3CCOCC3)nc(N3CCOCC3)n2)cn1,"DCLK2 (Homo sapiens, UniProt Q8N568)",enzyme activity,,10 µM,reference: untreated,remaining activity,100%
